Results pooled from the literature.
A part holds a random share of what one study measured. Positions count from the first letter of the parent shown.

Series 1
Target: CCNB2, cyclin fold, Cln2 fusion (human)
Method: yeast growth competition, sequencing
Matrix: yeast
Notes: weak parent motif
Reference: not given
Reading: higher = stronger binding
Endpoint: normalised enrichment score
Starting sequence: GMNC docking peptide (human); KNAKRNLSSEFAN; partner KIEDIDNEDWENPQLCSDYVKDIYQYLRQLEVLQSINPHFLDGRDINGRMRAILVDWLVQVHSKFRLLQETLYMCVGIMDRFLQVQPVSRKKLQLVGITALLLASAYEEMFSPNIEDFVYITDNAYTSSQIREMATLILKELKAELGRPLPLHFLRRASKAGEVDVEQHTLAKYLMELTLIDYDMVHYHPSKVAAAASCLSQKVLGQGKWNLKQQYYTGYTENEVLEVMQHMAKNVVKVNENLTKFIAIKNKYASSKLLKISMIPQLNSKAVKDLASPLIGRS
Substitution = KNAKRNLSSEFPN [A12P]; value = 0.291
Substitution = KNAKRNLNSEFAN [S8N]; value = 0.777
Substitution = KNAKRNNSSEFAN [L7N]; value = 0.544
Substitution = KNAKRNLSSEFRN [A12R]; value = 0.649
Substitution = KNAKRNLSSCFAN [E10C]; value = 0.423
Substitution = KNAKRNLSSSFAN [E10S]; value = 0.161
Substitution = KNAKRNLPSEFAN [S8P]; value = 0.326
Substitution = KNAKRNLSSECAN [F11C]; value = 0.38
Substitution = KGAKRNLSSEFAN [N2G]; value = 0.504
Substitution = KNAKRNPSSEFAN [L7P]; value = 0.404
Substitution = KNSKRNLSSEFAN [A3S]; value = 0.484
Substitution = KYAKRNLSSEFAN [N2Y]; value = 0.892
Substitution = KNAKQNLSSEFAN [R5Q]; value = 0.367
Substitution = KNAKRDLSSEFAN [N6D]; value = -0.134
Substitution = KNAKRNLSSEMAN [F11M]; value = 0.94
Substitution = KNAKRNLSSEFLN [A12L]; value = 0.109
Substitution = KNAKRSLSSEFAN [N6S]; value = 0.366
Substitution = KNAIRNLSSEFAN [K4I]; value = 0.49
Substitution = KNAKRNWSSEFAN [L7W]; value = 0.127
Substitution = KNAKVNLSSEFAN [R5V]; value = -0.28
Substitution = KNAKRNLSSDFAN [E10D]; value = 0.203
Substitution = KNPKRNLSSEFAN [A3P]; value = -0.0283
Substitution = KNAKRNTSSEFAN [L7T]; value = 0.121
Substitution = KNNKRNLSSEFAN [A3N]; value = 0.293
Substitution = KNAKRNLSSNFAN [E10N]; value = 0.196

Series 2
Target: RNA binding protein fox-1 homolog 2, RRM domain, GST-SBP tag (RBFOX2, Homo sapiens, UniProt O43251-10, residues 100-194)
Method: RNA Bind-n-Seq
Molecule type: RNA
Matrix: in vitro
Concentration: 365 nM
Notes: natural RNA segment, single round, ends assumed
Reference: no-protein control
Reading: higher = stronger binding
Endpoint: RBNS enrichment (R)
Shared flanks, not repeated: GGGAGUUCUACAGUCCGACGAUC … UGGAAUUCUCGGGUGCCAA
Construct (chain): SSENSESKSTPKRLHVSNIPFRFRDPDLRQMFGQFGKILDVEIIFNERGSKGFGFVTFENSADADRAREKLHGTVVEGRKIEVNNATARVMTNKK
Strand = CAGCCCCUCAGUGUAGCCACUUCACCACCCUGUGCACCCUAAGUGACUUUUGAUUCCUUGAACCUUUUACUUACUUGAGGUGAGGAAAUGUCUGAUAAUCUGCAAAACAA; value = 0.427
Strand = AAGGAGUCUCCCCCUUCCUGCAUCACCACCUUGGUUUUGUUUUAUUUUGCUUCUUGGUCAAGAAAGGAGGGGAGAACCCAGCGCACCCCUCCCCCCCUUUUUUUAAACGC; value = 0.912
Strand = AGAGCAGCCAUAUGUGCCAUGGGUGCUUUGUGUUAGUUAUCUGCUCUAGUCUUACAGCUGAAAAUUGACCUCUGCCUUCCCCCAUCCCUUACUUUUUUUAGAUCCCUGUC; value = 0.596
Strand = CUCCACUCGACCCAGAAUGGAGCCUGCUCUCCGCGCCUACCCUUCCCGCCUCCCUCUCAGAGGCCUGCUGCCAGUGCAGCCACUGGCUUGGAACACCUUGGGGUCCCUCC; value = 0.29
Strand = GACGAGGCUCGACCCUGAUCCAGCACCAGCGCAUCCAUACCGGCGAGAAGCCUUACAAAUGUGAGGUUUGCAGCAAGGCCUUUUCCCAGAGCUCUGACCUCAUCAAACAC; value = 0.404
Strand = GUGCCCCAGACUUUAACUGUGUAAAUAAGAGUGUUUCAUUCAAAUGUUAAUAAACUUUACACAGUAAAUAGACACACUUUCUGCAAUGUACUGACAUGAGUGUCCAAUAU; value = 0.336
Strand = GAUCCUCCGCCGCCACACCGCACUGAGGACACGCCGGCCGGGCCGCCUCGUCUCAAGUUGUAUAAAGUUGUCUCCGUGUCCCCUCCUCCCUCUGCCCCCAGUGUUUCUUC; value = 0.174
Strand = AUAAGCUUUUGAUUUUUGUAUUGUUUGCAUCCCCUUGCCCUCAAUAAAUAAAGUUCUUUUUUAGUUCAAAUUUGAGACAGAAUGUUUGUUGUUCCCUCAGAAAUUCUUGU; value = 0.436

Series 3
Target: Ras GTPase-activating protein-binding protein 1, RRM domain (G3BP1, Homo sapiens, UniProt Q13283)
UniProt Q13283, sequence (whole entry, looked up): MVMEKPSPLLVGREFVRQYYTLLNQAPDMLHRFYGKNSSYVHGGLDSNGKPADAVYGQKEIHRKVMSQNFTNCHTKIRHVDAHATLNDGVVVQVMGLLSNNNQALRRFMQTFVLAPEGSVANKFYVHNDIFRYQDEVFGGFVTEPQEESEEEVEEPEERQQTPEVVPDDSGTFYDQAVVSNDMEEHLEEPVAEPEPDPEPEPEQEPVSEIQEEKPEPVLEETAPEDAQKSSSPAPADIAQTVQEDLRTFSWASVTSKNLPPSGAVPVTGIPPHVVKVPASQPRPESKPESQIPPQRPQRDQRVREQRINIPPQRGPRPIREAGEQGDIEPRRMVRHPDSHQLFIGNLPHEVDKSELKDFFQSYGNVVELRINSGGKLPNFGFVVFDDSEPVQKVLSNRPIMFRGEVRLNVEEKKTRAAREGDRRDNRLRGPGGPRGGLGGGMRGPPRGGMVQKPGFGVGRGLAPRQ
Method: RNA Bind-n-Seq
Molecule type: RNA
Matrix: in vitro
Concentration: 1 µM
Notes: whole 134-nt RNA, ends assumed
With: 150 mM KCl
Reference: input library
Reading: higher = stronger binding
Endpoint: log2 enrichment
Shared flanks, not repeated: GGGAGUUCUACAGUCCGACGAUC … UGGAAUUCUCGGGUGUCAAGG
Strand = UGGGAGGUGGAUUUUGUUUAUUUUUUUAGCUAAUUUCCAGGGGUGGGAAUUUUUUUUUAAUAUGUGUCAUGAAUAAAGUUGUUUUUGAAA; value = 1.41
Strand = UCCUCAAGUCCUGUGCUACACAUCGUAUGUACCGAAUCGGGAGGGAGGAGGGAAAGUAUUAUGUUACGCCGUUCGGAUCUGCACUUCCAG; value = -0.0265
Strand = UAACUUUAGAGGAGGAUAUGAUGGAUAUGGCAGUGGACGUGGAUUUGGGGAUGGCUAUAAUGGGUAUGGAGGAGGACCUGGAGGUGGCAA; value = -0.896
Strand = UGGCCCUGGUGGCAUGCGGGGAGGAAGAGGUGGCCUCAUGGAUCGUGGUGGUCCCGAUGGAAUGUUCAGAGGUGGCCGUGGUGGAGACAG; value = 0.812
Strand = CACAGACAAUACGCACCCACACAGACACAGAGGGAAGGGGUUGGGAUGGGGACAGGGUGCACAGCAGGGCGGGGUAGGACCCCAGCCCCU; value = -0.0225
Strand = UGGGAGGUGGAUUUUGUUGAUUUUUUUAGCUCAUUUCCAGGGGUGGGAAUUUUUUUUUAAUAUGUGUCAUGAAUAAAGUUGUUUUUGAAA; value = 0.963
Strand = UCAAGUCCUGUGCUACACAUCGUAUGUACCGAAUCGGUUUUUGGAAAGGUUUGGAAAGUAUUAUGUUACGCCGUUCGGAUCUGCACUUCC; value = -0.295
Strand = GUCCUGUGCUACACAUCGUAUGUACCGAAUCGGGCCCCCGGGCCCCCGGGCCCCCGGGAAAGUAUUAUGUUACGCCGUUCGGAUCUGCAC; value = -0.846
Strand = AAGUCCUGUGCUACACAUCGUAUGUACCGAAUCGGUGGAAAAAAAGGUUUUUUUGGAAAGUAUUAUGUUACGCCGUUCGGAUCUGCACUU; value = -0.331

Series 4
Target: BATF2, bZIP domain (human)
Method: DHFR protein complementation
Matrix: yeast
Notes: single substitutions, most at no-binding floor
Reference: wild-type JUN-FOS pair
Reading: higher = stronger binding
Endpoint: binding fitness
Starting sequence: JUN, bZIP domain (human); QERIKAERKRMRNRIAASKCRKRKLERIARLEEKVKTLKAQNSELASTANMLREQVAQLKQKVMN; partner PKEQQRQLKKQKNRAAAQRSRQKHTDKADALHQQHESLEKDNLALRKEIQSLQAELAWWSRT
Substitution = I28T; value = -0.472 natural log
Substitution = E44L; value = -0.518 natural log
Substitution = S47D; value = -0.118 natural log
Substitution = A49F; value = -1.24 natural log
Substitution = S47R; value = -0.121 natural log
Substitution = Q41S; value = -1.32 natural log
Substitution = E44Q; value = -0.306 natural log
Substitution = Q41W; value = -1.38 natural log
Substitution = A46M; value = -0.266 natural log
Substitution = R53K; value = -0.484 natural log
Substitution = N42Q; value = -0.878 natural log
Substitution = S47M; value = -0.306 natural log
Substitution = L45G; value = -1.41 natural log
Substitution = R30F; value = -0.227 natural log
Substitution = E54N; value = -0.535 natural log
Substitution = T48R; value = -0.168 natural log
Substitution = K39F; value = -0.991 natural log

Some of these lines once more (series 4):
Substitution = E44Q; value = -0.306 natural log
Substitution = Q41W; value = -1.38 natural log
Substitution = A46M; value = -0.266 natural log
Substitution = R53K; value = -0.484 natural log
Substitution = N42Q; value = -0.878 natural log
Substitution = S47M; value = -0.306 natural log
Substitution = L45G; value = -1.41 natural log
Substitution = R30F; value = -0.227 natural log
Substitution = E54N; value = -0.535 natural log
Substitution = T48R; value = -0.168 natural log
